Results pooled from the literature.
Every numbered part comes from another study and shows a few of its results, in no order. Several values in a cell are separate wells, animals, samples, runs or records.
Sequence of UniProt P35590 (whole entry, looked up): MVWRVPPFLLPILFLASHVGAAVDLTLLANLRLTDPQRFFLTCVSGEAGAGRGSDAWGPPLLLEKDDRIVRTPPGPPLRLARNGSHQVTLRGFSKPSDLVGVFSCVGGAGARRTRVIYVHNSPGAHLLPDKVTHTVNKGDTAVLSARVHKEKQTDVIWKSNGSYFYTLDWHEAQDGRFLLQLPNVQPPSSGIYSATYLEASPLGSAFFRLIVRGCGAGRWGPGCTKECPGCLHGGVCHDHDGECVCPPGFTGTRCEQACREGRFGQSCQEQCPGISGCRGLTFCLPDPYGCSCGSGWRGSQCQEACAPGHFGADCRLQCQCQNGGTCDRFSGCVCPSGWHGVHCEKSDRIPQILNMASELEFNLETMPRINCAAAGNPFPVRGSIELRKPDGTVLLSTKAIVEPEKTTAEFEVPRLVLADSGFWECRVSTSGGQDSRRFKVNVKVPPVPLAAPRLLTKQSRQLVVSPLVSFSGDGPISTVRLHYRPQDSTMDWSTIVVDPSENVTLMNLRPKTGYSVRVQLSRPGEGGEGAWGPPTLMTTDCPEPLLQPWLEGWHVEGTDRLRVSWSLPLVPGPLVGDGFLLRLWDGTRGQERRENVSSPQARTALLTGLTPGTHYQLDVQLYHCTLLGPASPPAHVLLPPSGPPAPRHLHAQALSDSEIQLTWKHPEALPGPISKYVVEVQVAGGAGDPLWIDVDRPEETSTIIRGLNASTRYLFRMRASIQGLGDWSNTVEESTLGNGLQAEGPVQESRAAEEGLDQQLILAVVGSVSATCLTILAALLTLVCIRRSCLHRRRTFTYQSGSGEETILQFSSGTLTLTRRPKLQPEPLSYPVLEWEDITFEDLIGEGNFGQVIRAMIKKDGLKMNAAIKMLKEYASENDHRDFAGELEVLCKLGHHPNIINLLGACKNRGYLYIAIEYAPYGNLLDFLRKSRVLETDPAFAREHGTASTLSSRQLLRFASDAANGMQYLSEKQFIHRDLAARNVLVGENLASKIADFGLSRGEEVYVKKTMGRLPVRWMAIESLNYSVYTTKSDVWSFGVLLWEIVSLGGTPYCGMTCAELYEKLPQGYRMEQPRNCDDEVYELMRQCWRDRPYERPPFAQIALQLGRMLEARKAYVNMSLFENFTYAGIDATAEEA
Sequence of UniProt P52564 (whole entry, looked up): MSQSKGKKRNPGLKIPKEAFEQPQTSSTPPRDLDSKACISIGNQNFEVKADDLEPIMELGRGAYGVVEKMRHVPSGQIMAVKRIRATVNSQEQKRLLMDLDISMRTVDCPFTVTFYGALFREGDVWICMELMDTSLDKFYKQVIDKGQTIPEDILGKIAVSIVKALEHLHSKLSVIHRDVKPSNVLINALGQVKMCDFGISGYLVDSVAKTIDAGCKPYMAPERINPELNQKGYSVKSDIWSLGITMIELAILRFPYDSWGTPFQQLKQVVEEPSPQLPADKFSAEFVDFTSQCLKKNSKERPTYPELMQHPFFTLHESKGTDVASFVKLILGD
Sequence of UniProt O60331 (whole entry, looked up): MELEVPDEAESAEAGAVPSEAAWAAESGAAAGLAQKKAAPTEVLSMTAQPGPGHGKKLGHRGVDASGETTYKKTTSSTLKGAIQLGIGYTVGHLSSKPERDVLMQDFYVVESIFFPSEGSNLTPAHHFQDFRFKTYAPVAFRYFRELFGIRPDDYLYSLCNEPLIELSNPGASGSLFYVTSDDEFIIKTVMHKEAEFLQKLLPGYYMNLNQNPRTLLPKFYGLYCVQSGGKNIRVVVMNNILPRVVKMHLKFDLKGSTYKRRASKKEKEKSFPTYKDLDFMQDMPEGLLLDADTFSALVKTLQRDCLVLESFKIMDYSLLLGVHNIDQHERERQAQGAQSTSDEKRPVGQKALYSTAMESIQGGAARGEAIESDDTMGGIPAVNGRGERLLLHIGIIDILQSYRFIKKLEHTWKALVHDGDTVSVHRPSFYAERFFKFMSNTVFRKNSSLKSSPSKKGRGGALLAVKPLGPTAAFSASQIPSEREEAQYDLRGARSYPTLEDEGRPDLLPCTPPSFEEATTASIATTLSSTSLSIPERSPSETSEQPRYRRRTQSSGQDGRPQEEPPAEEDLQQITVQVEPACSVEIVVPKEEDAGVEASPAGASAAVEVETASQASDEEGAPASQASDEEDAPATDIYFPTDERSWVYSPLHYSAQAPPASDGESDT
Sequence of UniProt Q99558 (whole entry, looked up): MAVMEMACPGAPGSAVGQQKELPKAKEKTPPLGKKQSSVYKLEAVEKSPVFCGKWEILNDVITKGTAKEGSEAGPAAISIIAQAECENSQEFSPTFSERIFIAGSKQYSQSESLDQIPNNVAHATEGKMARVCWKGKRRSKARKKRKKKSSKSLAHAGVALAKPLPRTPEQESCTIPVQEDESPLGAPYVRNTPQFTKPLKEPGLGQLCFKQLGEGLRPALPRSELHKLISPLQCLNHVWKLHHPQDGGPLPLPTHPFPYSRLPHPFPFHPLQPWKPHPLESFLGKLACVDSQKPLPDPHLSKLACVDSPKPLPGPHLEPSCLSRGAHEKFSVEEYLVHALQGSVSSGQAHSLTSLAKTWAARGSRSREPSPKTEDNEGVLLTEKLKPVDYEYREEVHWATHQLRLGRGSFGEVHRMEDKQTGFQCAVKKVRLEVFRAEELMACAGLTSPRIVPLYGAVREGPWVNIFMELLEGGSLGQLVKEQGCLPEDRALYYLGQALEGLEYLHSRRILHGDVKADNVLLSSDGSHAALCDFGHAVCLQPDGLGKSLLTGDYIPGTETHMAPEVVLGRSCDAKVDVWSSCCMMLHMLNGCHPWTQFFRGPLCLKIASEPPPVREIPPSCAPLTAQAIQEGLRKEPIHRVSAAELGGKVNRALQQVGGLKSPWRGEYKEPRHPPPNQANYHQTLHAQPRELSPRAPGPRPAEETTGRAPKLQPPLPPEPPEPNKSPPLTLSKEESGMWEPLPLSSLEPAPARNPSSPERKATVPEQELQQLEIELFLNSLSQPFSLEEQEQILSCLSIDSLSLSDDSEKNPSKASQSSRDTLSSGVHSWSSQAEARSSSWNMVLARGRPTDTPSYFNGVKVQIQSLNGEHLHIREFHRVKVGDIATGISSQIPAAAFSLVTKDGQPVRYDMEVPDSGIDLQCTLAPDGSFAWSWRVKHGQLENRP
Sequence of UniProt Q16659 (whole entry, looked up): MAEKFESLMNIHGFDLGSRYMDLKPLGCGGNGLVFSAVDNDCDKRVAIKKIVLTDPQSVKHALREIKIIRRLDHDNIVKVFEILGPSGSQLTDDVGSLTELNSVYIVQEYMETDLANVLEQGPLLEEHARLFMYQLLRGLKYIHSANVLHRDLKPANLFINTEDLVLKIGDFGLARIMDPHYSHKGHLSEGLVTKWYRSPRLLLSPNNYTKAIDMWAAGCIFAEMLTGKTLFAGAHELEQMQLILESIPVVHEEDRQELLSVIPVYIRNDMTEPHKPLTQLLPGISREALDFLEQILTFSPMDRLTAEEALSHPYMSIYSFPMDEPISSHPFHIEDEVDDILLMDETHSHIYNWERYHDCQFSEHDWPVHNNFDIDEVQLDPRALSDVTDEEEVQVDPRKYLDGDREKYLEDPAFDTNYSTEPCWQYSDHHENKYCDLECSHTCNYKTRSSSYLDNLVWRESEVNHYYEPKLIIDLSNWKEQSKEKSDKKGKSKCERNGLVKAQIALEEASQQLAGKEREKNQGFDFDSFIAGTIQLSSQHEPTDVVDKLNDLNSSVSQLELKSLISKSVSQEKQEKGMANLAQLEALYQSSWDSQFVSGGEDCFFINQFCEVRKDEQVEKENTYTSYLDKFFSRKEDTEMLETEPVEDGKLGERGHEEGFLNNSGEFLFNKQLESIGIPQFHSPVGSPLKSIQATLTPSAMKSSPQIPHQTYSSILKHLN
Sequence of UniProt Q9HC98 (whole entry, looked up): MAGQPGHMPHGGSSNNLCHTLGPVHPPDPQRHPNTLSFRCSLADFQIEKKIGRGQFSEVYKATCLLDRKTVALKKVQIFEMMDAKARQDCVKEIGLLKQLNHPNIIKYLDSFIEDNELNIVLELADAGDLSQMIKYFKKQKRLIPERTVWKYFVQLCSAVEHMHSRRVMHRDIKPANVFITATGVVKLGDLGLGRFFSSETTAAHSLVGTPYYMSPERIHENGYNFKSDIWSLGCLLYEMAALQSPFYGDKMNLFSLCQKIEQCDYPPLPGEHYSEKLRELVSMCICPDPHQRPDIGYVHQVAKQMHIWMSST
Sequence of UniProt Q8N752 (whole entry, looked up): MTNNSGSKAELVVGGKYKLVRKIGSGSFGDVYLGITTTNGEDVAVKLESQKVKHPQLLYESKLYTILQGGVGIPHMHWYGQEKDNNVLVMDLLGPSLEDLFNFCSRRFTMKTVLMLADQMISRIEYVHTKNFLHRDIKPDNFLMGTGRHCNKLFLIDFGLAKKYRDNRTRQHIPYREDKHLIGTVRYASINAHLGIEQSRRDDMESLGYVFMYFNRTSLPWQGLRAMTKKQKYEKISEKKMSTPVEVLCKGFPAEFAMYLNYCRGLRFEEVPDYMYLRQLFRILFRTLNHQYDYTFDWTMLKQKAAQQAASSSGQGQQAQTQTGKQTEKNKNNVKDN

Study 1
Structure (SMILES): CC[C@@]1(c2cccc(C(F)(F)F)c2)C2=C(Nc3n[nH]cc31)[C@H](F)C(C)(C)CC2=O (single isomer, unassigned)
Tested at: 1 µM
target | read-out | method | reference | remaining binding [%]
Phosphatidylinositol 4-phosphate 5-kinase type-1 gamma (PIP5K1C, Homo sapiens, UniProt O60331) | kinase binding | KINOMEscan | DMSO control | 60
Dual specificity mitogen-activated protein kinase kinase 4 (MAP2K4, Homo sapiens, UniProt P45985) | kinase binding | KINOMEscan | DMSO control | 100
Casein kinase I isoform alpha-like (CSNK1A1L, Homo sapiens, UniProt Q8N752) | kinase binding | KINOMEscan | DMSO control | 100
Ribosomal protein S6 kinase alpha-6, C-terminal kinase domain (RPS6KA6, Homo sapiens, UniProt Q9UK32) | binding | competition with immobilised ligand |  | 91
Dual specificity mitogen-activated protein kinase kinase 6 (MAP2K6, Homo sapiens, UniProt P52564) | kinase binding | KINOMEscan | DMSO control | 89
Tyrosine-protein kinase ABL1, phosphorylated (ABL1, Homo sapiens, UniProt P00519, Q252H) | binding | competition with immobilised ligand |  | 60
Mast/stem cell growth factor receptor Kit (KIT, Homo sapiens, UniProt P10721, V559D) | binding | competition with immobilised ligand |  | 100
Serine/threonine-protein kinase WNK4 (WNK4, Homo sapiens, UniProt Q96J92) | kinase binding | KINOMEscan | DMSO control | 81
Wee1-like protein kinase (WEE1, Homo sapiens, UniProt P30291) | kinase binding | KINOMEscan | DMSO control | 100
LIM domain kinase 2 (LIMK2, Homo sapiens, UniProt P53671) | kinase binding | KINOMEscan | DMSO control | 100
Mitogen-activated protein kinase 6 (MAPK6, Homo sapiens, UniProt Q16659) | kinase binding | KINOMEscan | DMSO control | 98
Serine/threonine-protein kinase Nek2 (NEK2, Homo sapiens, UniProt P51955) | binding | competition with immobilised ligand |  | 11
Mitogen-activated protein kinase kinase kinase 14 (MAP3K14, Homo sapiens, UniProt Q99558) | binding | competition with immobilised ligand |  | 100
Phosphatidylinositol 4,5-bisphosphate 3-kinase catalytic subunit alpha isoform (PIK3CA, Homo sapiens, UniProt P42336, E545K) | kinase binding | KINOMEscan | DMSO control | 71
LIM domain kinase 1 (LIMK1, Homo sapiens, UniProt P53667) | binding | competition with immobilised ligand |  | 94
Proto-oncogene tyrosine-protein kinase Src (SRC, Homo sapiens, UniProt P12931) | kinase binding | KINOMEscan | DMSO control | 100
Tyrosine-protein kinase receptor Tie-1 (TIE1, Homo sapiens, UniProt P35590) | binding | competition with immobilised ligand |  | 100
Serine/threonine-protein kinase Nek6 (NEK6, Homo sapiens, UniProt Q9HC98) | kinase binding | KINOMEscan | DMSO control | 94
Epidermal growth factor receptor (EGFR, Homo sapiens, UniProt P00533, G719C) | binding | competition with immobilised ligand |  | 100

Study 2
Cell line: Gaucher fibroblasts L444P/L444P
Method: 4-MUG hydrolysis, cell lysate
Tested at: 1 µM
Time: 72 h
Reference: vehicle
SMILES | GCase activity [%]
CCOc1ccc2nc(Sc3nc(Nc4ccc(I)cc4)nc(N4CCOCC4)n3)sc2c1 | 113
Ic1ccc(Nc2nc(NCCN3CCOCC3)nc(N3CCSCC3)n2)cc1 | 101
Ic1ccc(Nc2nc(NCCN3CCOCC3)nc(N3CC4CC3CO4)n2)cc1 (stereo not shown) | 99
Ic1ccc(Nc2nc(NCCc3c[nH]c4ccccc34)nc(N3CCOCC3)n2)cc1 | 182
Ic1ccc(Nc2nc(NCCN3CCOCC3)nc(N3CCNCC3)n2)cc1 | 106

Study 3
SMILES: CCN1/C(=C/C=C2\CCCC(/C=C/C3=[N+](CC)c4ccccc4C3(C)C)=C2NCCCCCCCCN2CCC(Nc3nc4ccccc4n3Cc3ccc(F)cc3)CC2)C(C)(C)c2ccccc21
Cell line: U-87 MG
Tested at: concentration not given
Reference: DMSO
item | log2 fold change
IGFN1 mRNA | -2.37
SUPT20HL1 mRNA | -4.52
PAQR8 mRNA | -0.995
CNIH2 mRNA | -2.02
TRAM2 mRNA | -2
ALDH1B1 mRNA | -1.54
TRAF1 mRNA | 2.38
CCDC9B mRNA | -1.13
MXI1 mRNA | 0.884
ANKRD35 mRNA | -1.62
SERPINB8 mRNA | 1.92
PCDHB16 mRNA | -1.22

Study 4
SMILES: Cc1ncc(-c2cc3c(Cl)c(-c4c(C)ccc(O)c4C)cnc3[nH]2)cn1
Target: Membrane-associated tyrosine- and threonine-specific cdc2-inhibitory kinase (PKMYT1, Homo sapiens, UniProt Q99640)
Read-out: binding
Method: HTRF
Residues (Q99640 1-499): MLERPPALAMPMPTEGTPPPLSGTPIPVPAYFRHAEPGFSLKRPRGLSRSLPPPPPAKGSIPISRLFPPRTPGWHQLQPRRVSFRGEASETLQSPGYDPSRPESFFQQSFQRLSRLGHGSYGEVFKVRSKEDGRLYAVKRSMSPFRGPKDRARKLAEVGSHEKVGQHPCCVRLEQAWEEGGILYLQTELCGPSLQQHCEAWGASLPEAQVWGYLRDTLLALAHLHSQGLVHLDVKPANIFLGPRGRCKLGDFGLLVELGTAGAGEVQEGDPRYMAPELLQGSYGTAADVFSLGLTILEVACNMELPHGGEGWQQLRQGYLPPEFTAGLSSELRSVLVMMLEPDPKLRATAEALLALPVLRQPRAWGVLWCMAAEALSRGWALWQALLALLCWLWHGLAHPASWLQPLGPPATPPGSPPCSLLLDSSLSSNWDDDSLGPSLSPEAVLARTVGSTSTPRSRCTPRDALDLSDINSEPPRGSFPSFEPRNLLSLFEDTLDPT
tested at | inhibition
0.51 nM | -13.5% and -6.51%
41.15 nM | -3.64% and 1.31%
370.37 nM | 52.5% and 53.6%
1.52 nM | -5.69% and -13.8%
123.46 nM | 19.1% and 16.4%

Study 5
Cell line: MDA-MB-468
Read-out: cell viability
Method: CellCounting-Lite
Tested at: 222.2 nM
Temperature: 37 °C
Reading: higher = more viable cells
Structure (SMILES) | luminescence signal
CCn1cnc2c(NCc3nc4cc(Cl)c(Cl)cc4[nH]3)nc(N3CCN(S(C)(=O)=O)CC3)nc21 | 43900 a.u. and 38900 a.u. and 36800 a.u.
CC(=O)N1CCN(c2nc(NCc3nc4cc(Cl)c(Cl)cc4[nH]3)c3ncn(C)c3n2)CC1 | 106000 a.u. and 65600 a.u. and 96800 a.u.
CCn1cnc2c(NCc3nc4cc(Cl)c(Cl)cc4[nH]3)nc(N3CCN(Cc4ccncc4)CC3)nc21 | 33100 a.u. and 30400 a.u. and 31800 a.u.
CCn1cnc2c(NCc3nc4cc(Cl)c(Cl)cc4[nH]3)nc(N3CCN(C(=O)c4ccncc4)CC3)nc21 | 47300 a.u. and 33600 a.u. and 45400 a.u.
CCn1cnc2c(NCc3nc4cc(F)c(F)cc4[nH]3)nc(N3CCn4ncnc4C3)nc21 | 84900 a.u. and 87800 a.u. and 69600 a.u.
CC(=O)N1CCN(c2nc(NCc3nc4cc(Cl)c(Cl)cc4[nH]3)c3ncn(-c4cnn(C)c4)c3n2)CC1 | 33000 a.u. and 35100 a.u. and 38400 a.u.
CCn1cnc2c(NCc3nc4cc(Cl)c(Cl)cc4[nH]3)nc(N3CCN(C(=O)c4ccccc4)CC3)nc21 | 29500 a.u. and 32000 a.u. and 34400 a.u.
Cn1cc(-n2cnc3c(NCc4nc5cc(Cl)c(Cl)cc5[nH]4)nc(N4CCNCC4)nc32)cn1 | 42400 a.u. and 39600 a.u. and 43200 a.u.
CC(=O)N1CCN(c2nc(NCc3nc4cc(Cl)c(Cl)cc4[nH]3)c3ncn(C(C)C)c3n2)CC1 | 521000 a.u. and 432000 a.u. and 390000 a.u.
CCn1cnc2c(NCc3nc4cc(Cl)c(Cl)cc4[nH]3)nc(N3CCn4ncnc4C3)nc21 | 39400 a.u. and 43200 a.u. and 37000 a.u.
CCCCOc1nc(NCc2nc3cc(Cl)c(Cl)cc3[nH]2)c2ncn(CC)c2n1 | 130000 a.u. and 117000 a.u. and 102000 a.u.
CCn1cnc2c(NCc3nc4cc(Cl)c(Cl)cc4[nH]3)nc(N3CCC(NC(C)=O)CC3)nc21 | 62000 a.u. and 92200 a.u. and 71800 a.u.
CCn1cnc2c(NCc3nc4ccc(F)c(F)c4[nH]3)nc(N3CCn4ncnc4C3)nc21 | 50600 a.u. and 44000 a.u. and 42400 a.u.
CCn1cnc2c(NCc3nc4cc(Cl)c(Cl)cc4[nH]3)nc(N3CCN(C(=O)c4ccccn4)CC3)nc21 | 33700 a.u. and 44500 a.u. and 33100 a.u.
CCn1cnc2c(NCc3nc4cc(Cl)c(Cl)cc4[nH]3)nc(N3CCN(C(=O)CNC(C)=O)CC3)nc21 | 36000 a.u. and 29700 a.u. and 28500 a.u.
CCn1cnc2c(NCc3nc4cc(Cl)c(Cl)cc4[nH]3)nc(N3CCN(c4ccccn4)CC3)nc21 | 455000 a.u. and 385000 a.u. and 388000 a.u.
CCn1cnc2c(NCc3nc4cc(Cl)c(Cl)cc4[nH]3)nc(N3CCN(C(=O)[C@H](C)NC(C)=O)CC3)nc21 | 44000 a.u. and 39100 a.u. and 42600 a.u.
CCn1cnc2c(NCc3nc4cc(Cl)c(Cl)cc4[nH]3)nc(N3CCN(C(=O)c4cccnc4)CC3)nc21 | 33400 a.u. and 36600 a.u. and 31100 a.u.

Study 6
Compound: COCC1CC2C(CCC3(C)C(O)CCC23)c2ccc(O)cc21 (stereo not shown)
Method: DNA microarray
cell line | item | tested at | notes | reference | log2 fold change
A549 | IL23R | concentration not given |  | untreated cells | 4.11
PANC-1 | GADD45A | concentration not given | higher dose arm | untreated cells | 0.351
PANC-1 | MCM10 | concentration not given | higher dose arm | untreated cells | -1.04
SK-OV-3 | CDC25B | concentration not given | lower dose arm | untreated cells | 0.176
PANC-1 | CCL8 | concentration not given | lower dose arm | untreated cells | 5.02
PANC-1 | ADAMTS8 | concentration not given | higher dose arm | untreated cells | -0.308
PANC-1 | DNER | concentration not given |  | untreated cells | 6.09
SK-OV-3 | RFC3 | concentration not given | higher dose arm | untreated cells | -0.242
PANC-1 | CCL22 | concentration not given | higher dose arm | untreated cells | 0
A549 | AURKA | 100 µM |  | untreated cells | -0.987
PANC-1 | ORC1L | concentration not given | lower dose arm | untreated cells | -0.507
A549 | MOG mRNA | concentration not given |  | control | 3.87
PANC-1 | CCL11 | concentration not given | lower dose arm | untreated cells | 0
PANC-1 | GTSE1 | concentration not given |  | untreated cells | -1.3
SK-OV-3 | OLIG2 | concentration not given | lower dose arm | untreated cells | 3.35

Study 7
SMILES: Cc1ccc2c(c1)OC(O)(C(=O)O)C(=O)N2Cc1ccccc1 (stereo not shown)
organism | test | system | setting | inhibition
Arabidopsis thaliana | root length | Col-0 | 50.0 µg/mL, 7 days, seed germination, dark | 29.4%
Arabidopsis thaliana | root length | Col-0 | 25.0 µg/mL, 7 days, seed germination, dark | 16.8%
Arabidopsis thaliana | root length | Col-0 | 12.5 µg/mL, 7 days, seed germination, dark | 17%
Arabidopsis thaliana | root length | Col-0, seedlings | 100 µg/mL | 42.4%
Arabidopsis thaliana | hypocotyl length | Col-0 | 3.125 µg/mL, 7 days, seed germination, dark | 0.7%
Oryza sativa | fresh weight |  | soil surface spray, 150 g ai/ha, 21 days, pre-emergence crop safety | 8.1% and 6% and 7.5%
Abutilon theophrasti | fresh weight |  | 150 g ai/ha, pre-emergence treatment | 62.8% and 65% and 61.5%
Zea mays | fresh weight |  | soil surface spray, 150 g ai/ha, 21 days, pre-emergence crop safety | 9.8% and 12.8% and 13.4%
Arabidopsis thaliana | hypocotyl length | Col-0, seedlings | 3.125 µg/mL | 0.669%
Arabidopsis thaliana | root length | Col-0, seedlings | 12.5 µg/mL | 17%
Arabidopsis thaliana | hypocotyl length | Col-0, seedlings | 6.25 µg/mL | 2.25%
Alopecurus aequalis | fresh weight |  | 150 g ai/ha, pre-emergence treatment | 32.5% and 36.8% and 35.1%
Arabidopsis thaliana | root length | Col-0 | 100 µg/mL, 7 days, seed germination, dark | 42.4%
Arabidopsis thaliana | hypocotyl length | Col-0, seedlings | 50 µg/mL | 21.5%

Excerpt of the above (study 7):
organism | test | system | setting | inhibition
Arabidopsis thaliana | hypocotyl length | Col-0, seedlings | 6.25 µg/mL | 2.25%
Arabidopsis thaliana | root length | Col-0, seedlings | 100 µg/mL | 42.4%
Arabidopsis thaliana | root length | Col-0 | 12.5 µg/mL, 7 days, seed germination, dark | 17%
Arabidopsis thaliana | hypocotyl length | Col-0 | 3.125 µg/mL, 7 days, seed germination, dark | 0.7%
Arabidopsis thaliana | root length | Col-0 | 25.0 µg/mL, 7 days, seed germination, dark | 16.8%
Arabidopsis thaliana | hypocotyl length | Col-0, seedlings | 3.125 µg/mL | 0.669%
Alopecurus aequalis | fresh weight |  | 150 g ai/ha, pre-emergence treatment | 32.5% and 36.8% and 35.1%
Abutilon theophrasti | fresh weight |  | 150 g ai/ha, pre-emergence treatment | 62.8% and 65% and 61.5%
